# Results pooled from the literature.
# Each line is one published result; not all experiments were run side by side. ± marks the error that the study gave.
# IDE: Insulin-degrading enzyme (IDE, Homo sapiens, UniProt P14735)
SMILES,tested on,assay,test system,setting,measurement,value
COCCOCCOCCOc1ccc(C#Cc2cc(CN3CCN(Cc4cc(C#Cc5ccc(OCCOCCOCCOC)cc5)cc(C(=O)O)n4)CCN(Cc4cc(SC[C@H](N)C(=O)NC[C@H]5CC[C@H](C(=O)N[C@@H](Cc6ccc7ccccc7c6)C(=O)NCCCC[C@H](NC(=O)N[C@@H](CCC(=O)O)C(=O)O)C(=O)O)CC5)cc(C(=O)O)n4)CC3)nc(C(=O)O)c2)cc1 [yttrium-86 labelled],,,"mouse with bilateral PC-3 tumours, PSMA-positive tumour","intravenous, 6 h",tumour uptake,4.8 ± 0.01 %ID/g
Cc1[nH]c(C)c(-c2ccc(OCc3cc(F)cc(F)c3)nc2)c(=O)c1Cl,Plasmodium yoelii,,17XL,384-well,IC50,165 ± 55 nM
Cc1cccc(-c2ccc([C@@H]3[C@@H](CO)N4CCCCN(S(=O)(=O)N5CCN(C)CC5)C[C@@H]34)cc2)c1C,IDE,"enzyme activity, inhibitor, fluorescence kinetic",,added: Mca-RPPGFSAFK(Dnp)-OH substrate,EC50,32 nM
COc1cccc2c1C(=O)c1c(O)c3c(c(O)c1C2=O)C[C@@](O)(C(=O)CO)C[C@@H]3O[C@H]1C[C@H](NC(=O)[C@@H]2CCCN2C(=O)CNC(=O)[C@@H](N)CC(C)C)[C@H](O)[C@H](C)O1,,,"healthy mouse, plasma","intravenous, 849.5 mg/kg PhAc-ALGP-Dox",Cmax,2.5 ± 0.18 µM
CC(C)=NNc1ccc(C(=O)N[C@H]2CSSC[C@@H](C(=O)O)NC(=O)[C@H](Cc3c[nH]cn3)NC(=O)[C@H](CO)NC(=O)[C@H](Cc3ccccc3)NC(=O)[C@@H]3CCCN3C(=O)[C@H](CO)NC(=O)[C@@H]3CCCN3C(=O)[C@H]([C@@H](C)O)NC2=O)cn1,,analytical HPLC,,conjugate without acetone hydrazone protection,HPLC retention time,22.2 min
O=C(O)CC[C@H](NC(=O)N[C@@H](CCCCNC(=O)[C@H](Cc1ccc2ccccc2c1)NC(=O)CCCCCNC(=O)CN1CCN(CC(=O)O)CCN(CC(=O)O)CCN(CC(=O)O)CC1)C(=O)O)C(=O)O [gallium-68 labelled],,PET/CT SUVmean,mice with 22Rv1 xenograft,"intravenous, 3.7 MBq, 8 h",tumour to non-tumour ratio,2.77 ± 0.21
CC(C)C[C@H](NC(=O)C[C@H](O)[C@H](CC(C)C)NC(=O)[C@H](Cc1c[nH]cn1)NC(=O)CNC(=O)[C@@H](NC(=O)[C@H](C)NC(=O)[C@H](Cc1c[nH]c2ccccc12)NC(=O)[C@H](CCC(N)=O)NC(=O)[C@@H](Cc1ccccc1)NC(=O)COCCOCCNC(=O)CCC(C(=O)O)N1CCN(CC(=O)O)CCN(CC(=O)O)CCN(CC(=O)O)CC1)C(C)C)C(N)=O (stereo partly drawn) [lutetium-177 labelled],,,"female BALB/c nu/nu mice, spleen","intravenous, 100 pmol, 4 h, added: PA 300 µg",tissue uptake,0.09 ± 0.02 %ID/g
COc1cccc2c1C(=O)c1c(O)c3c(c(O)c1C2=O)C[C@@](O)(C(=O)CO)C[C@@H]3O[C@H]1C[C@H](NC(=O)[C@@H]2CCCN2C(=O)CN)[C@H](O)[C@H](C)O1,,,"healthy mouse, plasma","intravenous, 849.5 mg/kg PhAc-ALGP-Dox",Cmax,3.9 ± 0.53 µM
Cc1ccccc1-c1ccc([C@@H]2[C@H]3CN(C(=O)Cc4ccccn4)CC(=O)N3[C@H]2CO)cc1,IDE,"enzyme activity, inhibitor, fluorogenic kinetic",,added: Mca-RPPGFSAFK(Dnp)-OH substrate,EC50,2000 nM
CC(C)[C@H](NC(=O)[C@H](Cc1ccc(O)cc1)NC(=O)[C@H](Cc1ccc(O)cc1)NC(=O)[C@@H]1CCCN1C(=O)[C@H](CCC(=O)O)NC(=O)[C@H](CCC(=O)O)NC(=O)[C@H](Cc1c[nH]c2ccccc12)NC(=O)[C@@H]1CCCN1C(=O)[C@@H](NC(=O)[C@H](CCC(N)=O)NC(=O)c1ccc2c(c1)C(=O)OC21c2ccc(O)cc2Oc2cc(O)ccc21)C(C)C)C(=O)N[C@H](C(=O)N[C@@H](CCCCN)C(=O)N[C@@H](CCCCN)C(=O)N[C@@H](CO)C(=O)N[C@@H](CO)C(=O)NCC(=O)NCC(N)=O)C(C)C,,measured: total compound,"human, plasma","intravenous infusion, 200 mg, 1 h",plasma concentration,2600 ng/mL
CC(C)C[C@H](NC(=O)C[C@H](O)[C@H](CC(C)C)NC(=O)[C@H](Cc1c[nH]cn1)NC(=O)CNC(=O)[C@@H](NC(=O)[C@H](C)NC(=O)[C@H](Cc1c[nH]c2ccccc12)NC(=O)[C@H](CCC(N)=O)NC(=O)[C@@H](Cc1ccccc1)NC(=O)COCCOCCNC(=O)CCC(C(=O)O)N1CCN(CC(=O)O)CCN(CC(=O)O)CC1)C(C)C)C(N)=O (stereo partly drawn) [lutetium-177 labelled],,,"female BALB/c nu/nu mice, tumor","intravenous, 50 pmol, 24 h",tissue uptake,4 ± 1 %ID/g
N=C(N)NCCC[C@@H](NC(=O)CCOCCOCCNC(=O)[C@H](CCCCNC(=O)CC[C@H](NC(=O)c1ccc(NCc2cnc3nc(N)[nH]c(=O)c3n2)cc1)C(=O)O)NC(=O)CO/N=C/[C@H](F)[C@@H](O)[C@H](O)[C@H](O)CO)C(=O)NCC(=O)N[C@H](CC(=O)O)C(N)=O [fluorine-18 labelled],,,"female nude mice, MDA-MB-231 xenograft, liver and intestine",,hepatobiliary clearance,< 5 % ID
